Assay results pooled from the literature.
Numbered parts are unrelated; each lists some results of a single study. Changes are numbered by the printed parent chain.

Set 1
Target: RING finger protein unkempt homolog, zinc fingers 1-6, GST-SBP tag (UNK, Homo sapiens, UniProt Q9C0B0, residues 30-357)
Chain of UniProt Q9C0B0 (30-357, looked up): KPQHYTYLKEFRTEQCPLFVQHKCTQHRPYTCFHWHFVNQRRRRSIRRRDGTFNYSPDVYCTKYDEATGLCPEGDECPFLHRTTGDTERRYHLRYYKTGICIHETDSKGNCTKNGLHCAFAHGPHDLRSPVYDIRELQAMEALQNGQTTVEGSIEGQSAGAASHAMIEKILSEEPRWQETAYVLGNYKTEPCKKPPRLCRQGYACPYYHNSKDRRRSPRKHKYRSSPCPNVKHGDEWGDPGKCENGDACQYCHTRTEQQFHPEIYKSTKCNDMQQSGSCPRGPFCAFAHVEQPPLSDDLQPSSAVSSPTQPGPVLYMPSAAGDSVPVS
Technique: RNA Bind-n-Seq
Form: RNA
Sample: in vitro
Concentration: not given
Setting: RNA with constant flanks, ends assumed
Reference: input RNA pool
Direction: higher = stronger binding
For `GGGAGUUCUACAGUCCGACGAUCGGAUUUUUUUCUGUGUAAAUCAUCAAGUAUAAGAAGAAACUAUGGGACUCUGAGCCUUGCUUCCGAGAAUUUACAGUGGACAAAUAGGUGUCAUCAAACCAGUUUUUAAUCAUUCUGACUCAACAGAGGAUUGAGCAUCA`, the bound/input enrichment was 0.281 ratio.
`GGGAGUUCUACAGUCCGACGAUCCUGGCUGUUGAAAGACUGUUGGAGCCUCUUGUUACACAGGUUACAACCCUGGUAAACACCAACCGUAAAGGGCCGUCUAAUAAAAAGAGAGGCCGUUCUAAGAAGGCCCAUGUUUUGGCUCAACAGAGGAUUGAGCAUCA` gave a bound/input enrichment of 0.151 ratio.
The bound/input enrichment of `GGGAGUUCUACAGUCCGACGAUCGCCCAGGGUCGCCAUGUGGAAAUAUUUGAGCUCCUUAAACCUCCGUGUGGAGGCCUCGGCUUCCGUGUUGUUGGGCUCAGAAGUGAAAACAGGGGCGAGCUGGGGAUAUUUGUCCAGGAGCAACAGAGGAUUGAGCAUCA` is reported as 0.201 ratio.
For `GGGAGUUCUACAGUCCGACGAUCACCAUCUAUUCUGCAACCAAGACUUUUGUAGAUUUCUUCUCUCAGUGCCUCCAUGAGGAGUACCGGAGCAAGGGCGUCUUUGUGCAGAGUGUCCUGCCAUACUUCGUAGCUACAAAACUGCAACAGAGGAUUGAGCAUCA`, the bound/input enrichment was 0.153 ratio.
`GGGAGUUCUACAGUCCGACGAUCUUGGCAAAGCAUCCAGAGAAGCUGGCUACUGUCCUUUCUGGGGCGUGUGAUGGAGAGGUCCGAAUUUGGAAUCUAACUCAGCGGAAUUGUAUCCGUACAAUACAAGCACAUGAAGGCUUUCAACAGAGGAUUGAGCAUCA` gave a bound/input enrichment of 0.193 ratio.
With `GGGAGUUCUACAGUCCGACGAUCCAAUAUAUAUCUCCAUUUCAUGAUAUUCCAAUUUAUGCAGAUAAGGAUGUGUUUCACAUGGCCGUUGAAGUACCACGCUGGUCUAAUGCAAAAAUGGAGAUUGCUACAAAGGACCCUUUACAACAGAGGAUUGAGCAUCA` the bound/input enrichment was 0.144 ratio.
`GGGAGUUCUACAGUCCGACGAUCCGUUUUUUAUUGGAAAUGAGCACACAUUUACACAGGAGACCAAAAUCCACUUGCUAUUUCAACCGCCUGACUGUUUCUGAGCAGGUAGAGAAAUAAACAUGGAAAACAAAGACAGGGUGACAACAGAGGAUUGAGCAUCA` has a bound/input enrichment of 0.482 ratio.
For `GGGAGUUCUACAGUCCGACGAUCCCUCCACCUAAUGCAGAUCCCAAUAUGAAGUUAUUUACAAUUCGGGGCACUCCACAGCAAACCGACUAUGCUCGACAACUCAUAGAAGAGAAGAUUGGGGGCCCAGUAAAUCCUUUAGGGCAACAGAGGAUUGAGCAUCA`, the bound/input enrichment was 0.315 ratio.

Set 2
Target: CCNF, cyclin fold, Cln2 fusion (human)
Technique: yeast growth competition, sequencing
Sample: yeast
Setting: strong parent motif
Reference: not given
Direction: higher = stronger binding
Starting sequence: PKN2 docking peptide (human); VSAVRKLDFSDTM
For `L7Y`, “normalised enrichment score” read -0.0697.
`F9E` — result for “normalised enrichment score”: -0.335.
`K6D` — result for “normalised enrichment score”: 0.292.
For `S10D`, “normalised enrichment score” read 7.22.
`S2I`: “normalised enrichment score” 7.38.
For `V4C`, “normalised enrichment score” read 7.04.
Under “normalised enrichment score”, `R5Y` is recorded as -0.00216.
For `T12E`, “normalised enrichment score” read 6.67.
`L7W` — result for “normalised enrichment score”: -0.0494.
For `S2T`, “normalised enrichment score” read 7.01.
`D11F` — result for “normalised enrichment score”: 7.5.
`S10T`: “normalised enrichment score” 7.26.
For `T12C`, “normalised enrichment score” read 6.21.
Under “normalised enrichment score”, `T12Y` is recorded as 7.54.
Under “normalised enrichment score”, `L7P` is recorded as -0.17.
Under “normalised enrichment score”, `T12D` is recorded as 6.66.
`D8K` — result for “normalised enrichment score”: 8.29.
`S10P` — result for “normalised enrichment score”: 7.02.
`D8Y` — result for “normalised enrichment score”: 8.04.
`S2H` — result for “normalised enrichment score”: 7.18.
For `L7C`, “normalised enrichment score” read 0.0482.
Under “normalised enrichment score”, `R5A` is recorded as 0.765.

Set 3
Target: Interferon regulatory factor 5, full length, phosphomimetic (IRF5, Homo sapiens, UniProt Q13568-2, residues 1-514, K96S/S451D/S453D/S456D/S462D)
Technique: protein-binding microarray
Form: double-stranded DNA, one strand shown
Sample: in vitro
Concentration: 250 nM
Setting: 60-bp whole probe
Added: salmon DNA 0.4 mg/ml
Reference: random background probes
Direction: higher = stronger binding
Constant ends, left off below: GCCTAGCAC … GTCTTGATTCGCTTGACGCTGCTG
`TTCGATTTCGGGACTGGATTAGTGCTA` gave a log fluorescence of 3.4 z-score.
For `GACGGTTTCGGTCTCAGGACGTGCTAG`, the log fluorescence was 9.54 z-score.
The log fluorescence of `TGGTGTCTCTGGCCTGGGTCGGTGCTA` is reported as -0.295 z-score.
The log fluorescence of `CTTTCTTTTATGCTCTTTCTGTGCTAG` is reported as 2.88 z-score.
`TAGGCTCCAGGTTCTCTGAAGGTGCTA` gave a log fluorescence of -0.81 z-score.
The log fluorescence of `TTAGGTATCCTTATCCTTTCGTGCTAG` is reported as 0.777 z-score.
`GACGATCTCTGACTGGAGACGTGCTAG` gave a log fluorescence of -0.295 z-score.
`GAGGGACTGGACACTGGGGACGTGCTA` gave a log fluorescence of -0.458 z-score.
With `TTCTGAATGCCCTTCCATCACGTGCTA` the log fluorescence was -0.0838 z-score.
With `GCAAGAACAGCTGGTGGGCAGTGCTAG` the log fluorescence was -0.634 z-score.

Set 4
Target: ABI1, truncated, D143A, DHFR fusion (Arabidopsis thaliana)
Technique: DHFR PCA, deep sequencing
Sample: yeast
Setting: methotrexate growth selection, single substitutions
Added: (+)-ABA 0.11 µM
Reference: wild-type fitted maximum
Direction: higher = stronger binding
Starting sequence: PYL1, truncated, DHFR fusion (Arabidopsis thaliana); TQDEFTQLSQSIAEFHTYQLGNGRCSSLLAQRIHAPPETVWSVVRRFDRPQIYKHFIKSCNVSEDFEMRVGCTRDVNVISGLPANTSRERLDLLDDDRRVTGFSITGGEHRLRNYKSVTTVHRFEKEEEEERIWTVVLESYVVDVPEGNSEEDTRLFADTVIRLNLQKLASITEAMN
`D48V`: “relative binding score” -3.08%.
`E64V`: “relative binding score” 13.1%.
Under “relative binding score”, `A84R` is recorded as 3.56%.
`Q51H` — result for “relative binding score”: 23.6%.
`G148L`: “relative binding score” -3.27%.
`M176V` — result for “relative binding score”: 9.29%.
`H110I` — result for “relative binding score”: 4.62%.
Under “relative binding score”, `G107P` is recorded as -2.06%.
`T106I` — result for “relative binding score”: 84.2%.
For `S59L`, “relative binding score” read 0.242%.
Under “relative binding score”, `L29G` is recorded as 0.278%.
For `L164C`, “relative binding score” read 21.6%.
`E129S` — result for “relative binding score”: 46.7%.
`Y53T`: “relative binding score” 5.59%.
`K168T`: “relative binding score” 16%.
For `D96Q`, “relative binding score” read -1.25%.

Some of these lines once more (set 3):
The log fluorescence of `TGGTGTCTCTGGCCTGGGTCGGTGCTA` is reported as -0.295 z-score.
The log fluorescence of `CTTTCTTTTATGCTCTTTCTGTGCTAG` is reported as 2.88 z-score.
`TAGGCTCCAGGTTCTCTGAAGGTGCTA` gave a log fluorescence of -0.81 z-score.
The log fluorescence of `TTAGGTATCCTTATCCTTTCGTGCTAG` is reported as 0.777 z-score.
`GACGATCTCTGACTGGAGACGTGCTAG` gave a log fluorescence of -0.295 z-score.
`GAGGGACTGGACACTGGGGACGTGCTA` gave a log fluorescence of -0.458 z-score.
